Measured values collected from several papers.
Parts stem from different laboratories: compare values within a part only.
UniProt P30530, sequence (whole entry, looked up): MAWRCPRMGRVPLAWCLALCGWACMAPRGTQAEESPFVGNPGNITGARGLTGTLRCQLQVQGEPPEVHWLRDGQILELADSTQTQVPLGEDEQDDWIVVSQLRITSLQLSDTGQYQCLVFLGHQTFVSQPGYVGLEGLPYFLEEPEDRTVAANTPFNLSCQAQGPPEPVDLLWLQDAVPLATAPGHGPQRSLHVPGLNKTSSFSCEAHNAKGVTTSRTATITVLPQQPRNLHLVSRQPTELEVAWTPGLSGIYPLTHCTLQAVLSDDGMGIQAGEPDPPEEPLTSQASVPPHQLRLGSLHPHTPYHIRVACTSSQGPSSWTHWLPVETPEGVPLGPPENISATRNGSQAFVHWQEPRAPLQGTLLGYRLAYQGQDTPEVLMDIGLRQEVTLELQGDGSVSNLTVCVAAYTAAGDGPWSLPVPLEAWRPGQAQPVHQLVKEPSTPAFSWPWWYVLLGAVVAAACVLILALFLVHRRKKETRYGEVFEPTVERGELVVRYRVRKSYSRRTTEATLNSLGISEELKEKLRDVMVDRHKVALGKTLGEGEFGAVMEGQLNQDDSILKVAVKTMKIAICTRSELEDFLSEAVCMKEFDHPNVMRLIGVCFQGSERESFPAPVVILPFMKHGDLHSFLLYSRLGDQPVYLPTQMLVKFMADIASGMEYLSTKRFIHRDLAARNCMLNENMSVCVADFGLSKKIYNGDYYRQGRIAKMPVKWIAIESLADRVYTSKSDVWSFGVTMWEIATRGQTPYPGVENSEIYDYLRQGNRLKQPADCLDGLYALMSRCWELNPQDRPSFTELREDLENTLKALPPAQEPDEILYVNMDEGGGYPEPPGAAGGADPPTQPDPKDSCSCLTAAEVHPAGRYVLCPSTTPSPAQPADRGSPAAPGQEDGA
UniProt Q8TD19, sequence (whole entry, looked up): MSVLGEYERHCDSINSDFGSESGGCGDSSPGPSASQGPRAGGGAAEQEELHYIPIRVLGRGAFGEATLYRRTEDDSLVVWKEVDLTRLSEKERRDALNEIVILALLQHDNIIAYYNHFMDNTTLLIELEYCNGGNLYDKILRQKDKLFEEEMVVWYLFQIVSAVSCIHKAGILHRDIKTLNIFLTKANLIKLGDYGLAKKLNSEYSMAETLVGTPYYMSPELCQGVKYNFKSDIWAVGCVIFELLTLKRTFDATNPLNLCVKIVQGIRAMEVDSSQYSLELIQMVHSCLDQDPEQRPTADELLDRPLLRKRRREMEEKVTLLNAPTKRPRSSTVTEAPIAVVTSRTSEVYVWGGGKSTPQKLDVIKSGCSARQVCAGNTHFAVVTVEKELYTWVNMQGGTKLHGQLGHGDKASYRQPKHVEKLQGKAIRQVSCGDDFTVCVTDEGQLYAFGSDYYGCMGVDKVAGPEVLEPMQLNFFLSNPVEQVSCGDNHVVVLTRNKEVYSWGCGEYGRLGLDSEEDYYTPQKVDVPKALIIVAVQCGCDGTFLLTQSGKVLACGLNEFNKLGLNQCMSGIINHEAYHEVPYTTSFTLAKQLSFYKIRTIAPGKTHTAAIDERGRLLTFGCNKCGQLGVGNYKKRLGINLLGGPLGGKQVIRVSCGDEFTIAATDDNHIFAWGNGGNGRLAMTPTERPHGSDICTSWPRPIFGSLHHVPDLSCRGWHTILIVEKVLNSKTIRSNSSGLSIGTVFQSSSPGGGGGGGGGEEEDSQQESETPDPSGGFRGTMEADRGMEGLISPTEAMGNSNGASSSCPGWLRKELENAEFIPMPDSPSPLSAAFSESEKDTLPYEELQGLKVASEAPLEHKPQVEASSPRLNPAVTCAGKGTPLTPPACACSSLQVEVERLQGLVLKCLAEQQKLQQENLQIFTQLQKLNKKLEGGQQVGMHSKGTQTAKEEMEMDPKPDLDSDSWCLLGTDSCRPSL
UniProt Q8IY84, sequence (whole entry, looked up): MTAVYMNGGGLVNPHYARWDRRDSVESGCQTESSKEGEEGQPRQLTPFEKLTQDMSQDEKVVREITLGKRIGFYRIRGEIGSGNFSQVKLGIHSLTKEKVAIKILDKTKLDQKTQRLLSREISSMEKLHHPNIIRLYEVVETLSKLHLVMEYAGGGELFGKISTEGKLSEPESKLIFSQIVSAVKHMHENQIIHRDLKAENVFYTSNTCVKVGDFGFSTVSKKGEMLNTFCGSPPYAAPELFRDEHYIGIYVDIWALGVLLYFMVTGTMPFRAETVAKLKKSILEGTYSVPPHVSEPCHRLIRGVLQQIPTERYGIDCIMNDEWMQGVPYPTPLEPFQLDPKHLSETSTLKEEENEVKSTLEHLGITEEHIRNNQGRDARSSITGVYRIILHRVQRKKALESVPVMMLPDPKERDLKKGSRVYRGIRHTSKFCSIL
UniProt Q8NEV4, sequence (whole entry, looked up): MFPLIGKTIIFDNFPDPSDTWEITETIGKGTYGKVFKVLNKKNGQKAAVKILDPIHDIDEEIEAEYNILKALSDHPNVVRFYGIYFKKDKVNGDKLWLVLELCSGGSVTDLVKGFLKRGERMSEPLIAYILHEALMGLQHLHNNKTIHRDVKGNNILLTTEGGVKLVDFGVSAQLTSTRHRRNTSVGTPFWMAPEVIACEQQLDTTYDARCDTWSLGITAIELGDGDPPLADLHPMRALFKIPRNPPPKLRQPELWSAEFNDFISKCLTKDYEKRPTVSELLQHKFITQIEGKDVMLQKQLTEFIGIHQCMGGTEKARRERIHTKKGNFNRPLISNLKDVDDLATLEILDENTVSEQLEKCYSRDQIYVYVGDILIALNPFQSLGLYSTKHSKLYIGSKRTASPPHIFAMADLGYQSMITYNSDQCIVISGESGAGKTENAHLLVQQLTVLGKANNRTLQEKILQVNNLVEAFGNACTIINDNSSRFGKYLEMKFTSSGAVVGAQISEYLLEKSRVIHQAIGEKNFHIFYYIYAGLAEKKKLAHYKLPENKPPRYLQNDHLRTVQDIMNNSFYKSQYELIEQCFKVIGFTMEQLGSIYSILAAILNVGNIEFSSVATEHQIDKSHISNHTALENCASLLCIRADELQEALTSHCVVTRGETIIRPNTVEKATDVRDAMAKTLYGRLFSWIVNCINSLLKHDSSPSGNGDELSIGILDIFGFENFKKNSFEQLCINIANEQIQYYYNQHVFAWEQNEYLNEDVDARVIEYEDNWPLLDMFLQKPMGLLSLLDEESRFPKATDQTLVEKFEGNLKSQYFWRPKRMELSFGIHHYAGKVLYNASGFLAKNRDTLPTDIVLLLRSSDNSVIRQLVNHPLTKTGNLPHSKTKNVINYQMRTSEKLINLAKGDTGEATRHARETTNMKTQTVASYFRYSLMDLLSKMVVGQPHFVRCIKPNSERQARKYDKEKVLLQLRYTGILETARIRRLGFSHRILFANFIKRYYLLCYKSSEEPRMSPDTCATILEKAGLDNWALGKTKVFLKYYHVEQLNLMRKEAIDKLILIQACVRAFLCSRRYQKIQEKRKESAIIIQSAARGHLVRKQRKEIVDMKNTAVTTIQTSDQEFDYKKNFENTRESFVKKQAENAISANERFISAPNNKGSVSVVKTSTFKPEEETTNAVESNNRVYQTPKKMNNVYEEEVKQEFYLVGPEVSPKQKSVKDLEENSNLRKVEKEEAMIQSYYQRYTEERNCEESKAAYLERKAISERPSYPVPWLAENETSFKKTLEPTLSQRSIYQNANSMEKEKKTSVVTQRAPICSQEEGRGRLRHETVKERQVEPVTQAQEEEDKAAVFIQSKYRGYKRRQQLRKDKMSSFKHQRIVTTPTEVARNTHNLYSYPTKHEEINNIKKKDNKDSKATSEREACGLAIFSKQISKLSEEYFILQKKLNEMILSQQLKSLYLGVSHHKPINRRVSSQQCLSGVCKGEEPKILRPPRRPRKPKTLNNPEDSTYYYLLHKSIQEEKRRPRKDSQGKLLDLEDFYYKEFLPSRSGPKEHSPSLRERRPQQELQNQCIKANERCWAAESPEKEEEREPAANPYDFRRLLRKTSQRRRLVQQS

Series 1
Target: RAF proto-oncogene serine/threonine-protein kinase (RAF1, Homo sapiens, UniProt P04049)
UniProt P04049, sequence (whole entry, looked up): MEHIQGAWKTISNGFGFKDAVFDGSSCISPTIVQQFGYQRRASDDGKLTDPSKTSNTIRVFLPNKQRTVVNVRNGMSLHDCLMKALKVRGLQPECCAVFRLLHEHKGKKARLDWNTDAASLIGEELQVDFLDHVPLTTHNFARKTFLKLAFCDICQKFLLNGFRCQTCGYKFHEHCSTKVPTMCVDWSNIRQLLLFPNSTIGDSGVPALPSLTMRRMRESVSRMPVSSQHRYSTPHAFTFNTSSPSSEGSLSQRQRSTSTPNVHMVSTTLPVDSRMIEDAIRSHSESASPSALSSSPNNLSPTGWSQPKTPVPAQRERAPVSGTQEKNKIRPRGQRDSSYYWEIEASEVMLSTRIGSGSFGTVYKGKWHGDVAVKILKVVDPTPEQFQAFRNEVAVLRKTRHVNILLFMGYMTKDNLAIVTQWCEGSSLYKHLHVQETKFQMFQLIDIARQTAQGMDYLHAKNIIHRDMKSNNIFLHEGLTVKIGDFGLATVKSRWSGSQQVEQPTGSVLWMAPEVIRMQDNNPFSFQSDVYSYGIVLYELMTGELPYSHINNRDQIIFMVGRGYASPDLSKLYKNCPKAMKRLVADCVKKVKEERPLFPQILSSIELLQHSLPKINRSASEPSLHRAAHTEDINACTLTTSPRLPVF
Observed: enzyme activity
Action: inhibitor
Tested at: 0.5 µM
Reference: control
| SMILES | remaining activity [%] |
| --- | --- |
| CC(=O)c1ccc(N2CCOCC2)cc1O | 96.2 |
| CC#CC(=O)Nc1cc2c(Nc3ccc(F)c(Cl)c3)ncnc2cn1 | 85.6 |
| Nc1nc(Nc2ccc(S(N)(=O)=O)cc2)nn1C(=O)c1c(F)cccc1F | 95.7 |
| CCc1[nH]c(-c2ccc(OC)cc2)nc1-c1ccncc1 | 93.4 |
| COc1cc(Nc2c(C#N)cnc3cc(OCCCN4CCN(C)CC4)c(OC)cc23)c(Cl)cc1Cl | 105 |
| O=C1Cc2c([nH]c3ccc([N+](=O)[O-])cc23)-c2ccccc2N1 | 114 |
| Nc1ncnc2c1cnn2-c1ccccc1 | 95.4 |
| NC(=O)c1ccc(N(C(N)=O)c2c(F)cccc2F)nc1-c1ccc(F)cc1F | 97.5 |
| Oc1ccc(Nc2nc(-c3ccc(Cl)cc3)cs2)cc1 | 95.7 |
| Fc1ccc(-c2nc3n(c2-c2ccncc2)CCS3)cc1 | 91.1 |
| O=C1NC(=O)C(c2c[nH]c3ccccc23)=C1c1c[nH]c2ccccc12 | 122 |
| Cc1cncc2cccc(S(=O)(=O)N3CCCN(C(=O)CN)C[C@@H]3C)c12 | 95.1 |
| Nc1nccc(-c2c(-c3ccc(F)cc3)ncn2C2CCNCC2)n1 | 90.9 |
| CC[n+]1c(/C=C/N(C)c2ccccc2)n(-c2ccccc2)c2ccc(-c3nc4ccccc4s3)cc21 | 96.8 |
| Cc1cc(Nc2nc(-c3ccccc3)nc3ccccc23)n[nH]1 | 99.8 |
| Cc1ccc(NC2=CC(=O)c3sc(C)nc3C2=O)cc1 | 90.5 |
| CSc1nc(-c2ccnc(N[C@@H](C)c3ccccc3)c2)c(-c2ccc(F)cc2)[nH]1 (racemic) | 88.9 |
| O=S(=O)(NCCNC/C=C/c1ccc(Br)cc1)c1cccc2cnccc12 | 96.4 |
| CC(C)(C)n1nc(Cc2cccc3ccccc23)c2c(N)ncnc21 | 90.6 |
| CCCC(=O)Oc1ccc2[nH]c(C(=O)c3cc4ccccc4[nH]3)cc2c1 | 98.7 |
| N#CC(=C(N)Sc1ccc(N)cc1)c1ccccc1C(F)(F)F | 103 |
| COc1ccc(S(=O)(=O)N(CCO)c2ccccc2CN(C)CC=Cc2ccc(Cl)cc2)cc1 | 93.7 |

Series 2
Target: Calcium/calmodulin-dependent protein kinase type II subunit alpha (CAMK2A, Homo sapiens, UniProt Q9UQM7)
UniProt Q9UQM7, sequence (whole entry, looked up): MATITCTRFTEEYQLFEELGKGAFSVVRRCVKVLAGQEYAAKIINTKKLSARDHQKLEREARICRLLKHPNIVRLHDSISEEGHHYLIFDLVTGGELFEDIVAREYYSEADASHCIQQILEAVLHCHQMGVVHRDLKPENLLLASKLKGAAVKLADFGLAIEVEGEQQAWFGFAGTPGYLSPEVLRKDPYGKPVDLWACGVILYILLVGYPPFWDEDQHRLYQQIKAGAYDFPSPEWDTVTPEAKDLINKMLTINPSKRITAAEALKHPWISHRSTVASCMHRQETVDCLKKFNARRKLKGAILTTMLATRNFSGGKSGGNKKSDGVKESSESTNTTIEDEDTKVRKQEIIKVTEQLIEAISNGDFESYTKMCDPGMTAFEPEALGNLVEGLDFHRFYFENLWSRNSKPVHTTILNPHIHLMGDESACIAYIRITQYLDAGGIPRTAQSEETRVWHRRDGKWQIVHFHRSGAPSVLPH
Observed: enzyme activity
Action: inhibitor
Tested at: 10 µM
| Compound | inhibition [%] |
| --- | --- |
| Cc1ccccc1-c1cc(N2CCN(C)CC2)ncc1N(C)C(=O)C(C)(C)c1cc(C(F)(F)F)cc(C(F)(F)F)c1 | -2 |
| COc1cc2nc(N3CCN(C(=O)[C@@H]4CCCO4)CC3)nc(N)c2cc1OC | -10 |
| CN1C(=O)[C@H](O)C[C@H]1c1cccnc1 | 43 |
| Cc1nc2c(O[C@H]3CCOc4cc(F)cc(F)c43)cc(C(=O)N(C)C)cc2[nH]1 | -4 |
| CN1CCC(=C2c3ccccc3Sc3ccccc32)CC1 | 1 |
| COc1ccc2[nH]cc(CCO)c2c1 | 27 |
| CC(C)(Oc1ccc(CCNC(=O)c2ccc(Cl)cc2)cc1)C(=O)O | 3 |
| CS(=O)(=O)OCCCCOS(C)(=O)=O | -4 |
| CN1c2ccccc2C(=O)N2CCc3c([nH]c4ccccc34)[C@H]21 | 3 |
| CCOc1cc([C@@H](CS(C)(=O)=O)N2C(=O)c3cccc(NC(C)=O)c3C2=O)ccc1OC | 8 |
| COc1ccc(-c2oc3c(CC=C(C)C)c(O[C@@H]4C[C@H](CO)[C@@H](O)[C@H](O)[C@H]4O)cc(O)c3c(=O)c2O[C@@H]2O[C@@H](C)[C@H](O)[C@@H](O)[C@H]2O[C@@H]2O[C@H](CO)[C@@H](O)[C@H](O)[C@H]2O)cc1 | 21 |

Series 3
Host: human
Sample: microsomes or S9
Tested at: 2 µM
Time: 0.5 h
| Structure (SMILES) | remaining compound [%] |
| --- | --- |
| COc1ccc2c(n1)c1c(n2-c2ccc(N(C)C)cc2)CCC1 | 31.4 |
| Cc1ccccc1S(=O)(=O)Nc1nc2ccccc2nc1NC(c1ccccc1)c1nccn1C (stereo not shown) | > 100 |
| CCOc1cc(CNC(C)(C)C)c(Cl)cc1OC(C)C | > 99 |
| O=C(NC1CCN(Cc2ccc(OC3CCNCC3)c(Br)c2)CC1)c1ccc(-c2ccccc2)o1 | > 100 |
| O=C(c1ccccc1)c1cc2occ(-c3ccccc3)c2cc1O | 71 |
| Cc1noc(C)c1CN1CCn2c1nc(-c1ccccc1)cc2=O | 9.96 |
| CCOc1cc(CNC(C)c2ccccc2)ccc1OCC(C)C (stereo not shown) | 55.5 |
| Cc1nc(=N)nc2ncc(C(=O)c3ccccc3O)cn12 | 75.9 |
| COc1ccc(Sc2nn(S(C)(=O)=O)c3ccccc23)cc1OC | 11 |
| O=c1[nH]c(NN2CCOCC2)nnc1Cc1ccc(Cl)cc1 | 34.6 |
| CC(C)c1nc(C#N)c(NNC(=O)CC2CCCCC2)o1 | 0 |
| CC(C)(C)OC(=O)NC(CC(=O)N1CCCCN1)Cc1ccccc1F (stereo not shown) | 3.34 |

Series 4
SMILES: Nc1cnc(N2CCc3cc(S(=O)(=O)Nc4c(F)cc(Cl)cc4F)cc(N4CCCC4=O)c32)nc1
Observed: cell-free assay
Method: competition with immobilised ligand
Tested at: 1 µM
| target | remaining binding |
| --- | --- |
| Serine/threonine-protein kinase D1 (PRKD1, Homo sapiens, UniProt Q15139) | 83% |
| Serine/threonine-protein kinase NIM1 (NIM1K, Homo sapiens, UniProt Q8IY84) | 100% |
| Serine/threonine-protein kinase pim-2 (PIM2, Homo sapiens, UniProt Q9P1W9) | 85% |
| Dual specificity mitogen-activated protein kinase kinase 5 (MAP2K5, Homo sapiens, UniProt Q13163) | 84% |
| Cyclin-dependent kinase 3 (CDK3, Homo sapiens, UniProt Q00526) | 100% |
| Mitogen-activated protein kinase kinase kinase 9 (MAP3K9, Homo sapiens, UniProt P80192) | 100% |
| Mitogen-activated protein kinase kinase kinase 2 (MAP3K2, Homo sapiens, UniProt Q9Y2U5) | 100% |
| Serine/threonine-protein kinase Nek9 (NEK9, Homo sapiens, UniProt Q8TD19) | 98% |
| Serine/threonine-protein kinase TBK1 (TBK1, Homo sapiens, UniProt Q9UHD2) | 85% |
| Macrophage-stimulating protein receptor (MST1R, Homo sapiens, UniProt Q04912) | 98% |
| Cyclin-dependent kinase 8 (CDK8, Homo sapiens, UniProt P49336) | 100% |
| Mitogen-activated protein kinase 12 (MAPK12, Homo sapiens, UniProt P53778) | 100% |
| TGF-beta receptor type-2 (TGFBR2, Homo sapiens, UniProt P37173) | 92% |
| Ribosomal protein S6 kinase alpha-5, N-terminal kinase domain (RPS6KA5, Homo sapiens, UniProt O75582) | 95% |
| Tyrosine-protein kinase Fyn (FYN, Homo sapiens, UniProt P06241) | 58% |
| Mitogen-activated protein kinase 10 (MAPK10, Homo sapiens, UniProt P53779) | 94% |
| Ephrin type-A receptor 6 (EPHA6, Homo sapiens, UniProt Q9UF33) | 98% |
| Serine/threonine-protein kinase pim-3 (PIM3, Homo sapiens, UniProt Q86V86) | 98% |
| Interleukin-1 receptor-associated kinase 1 (IRAK1, Homo sapiens, UniProt P51617) | 100% |
| Peripheral plasma membrane protein CASK (CASK, Homo sapiens, UniProt O14936) | 94% |
| NUAK family SNF1-like kinase 2 (NUAK2, Homo sapiens, UniProt Q9H093) | 100% |
| Myosin-IIIa (MYO3A, Homo sapiens, UniProt Q8NEV4) | 77% |
| Mitogen-activated protein kinase kinase kinase 10 (MAP3K10, Homo sapiens, UniProt Q02779) | 75% |
| Tyrosine-protein kinase receptor UFO (AXL, Homo sapiens, UniProt P30530) | 69% |
| MAP/microtubule affinity-regulating kinase 3 (MARK3, Homo sapiens, UniProt P27448) | 100% |

For quick reference, copied from above (series 4):
| target | remaining binding |
| --- | --- |
| Mitogen-activated protein kinase kinase kinase 9 (MAP3K9, Homo sapiens, UniProt P80192) | 100% |
| Mitogen-activated protein kinase kinase kinase 2 (MAP3K2, Homo sapiens, UniProt Q9Y2U5) | 100% |
| Serine/threonine-protein kinase Nek9 (NEK9, Homo sapiens, UniProt Q8TD19) | 98% |
| Serine/threonine-protein kinase TBK1 (TBK1, Homo sapiens, UniProt Q9UHD2) | 85% |
| Macrophage-stimulating protein receptor (MST1R, Homo sapiens, UniProt Q04912) | 98% |
